Measured values gathered from unrelated publications.
A part holds a random share of what one study measured. Positions count from the first letter of the parent shown.

Sample 1
Target: ABI1, truncated, D143A, DHFR fusion (Arabidopsis thaliana)
Technique: DHFR PCA, deep sequencing
Medium: yeast
Notes: methotrexate growth selection, single substitutions
Together with: (+)-ABA 0.39 µM
Reference: wild-type fitted maximum
Direction: higher = stronger binding
Starting sequence: PYL1, truncated, DHFR fusion (Arabidopsis thaliana); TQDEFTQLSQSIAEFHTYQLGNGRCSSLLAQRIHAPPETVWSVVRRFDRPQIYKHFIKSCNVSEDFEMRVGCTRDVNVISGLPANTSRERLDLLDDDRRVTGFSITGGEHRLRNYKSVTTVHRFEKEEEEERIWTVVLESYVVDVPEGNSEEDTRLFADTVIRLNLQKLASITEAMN
Substitution | relative binding score
T106Y | 22.6%
N149G | 58.8%
L82T | 4.17%
K116A | 6.63%
S140C | 3.41%
S59P | -2.18%
T101N | -2.96%
G102M | -0.00742%
G108P | -12.3%
I12R | -2.95%
V161N | 17.9%
H122N | 8.51%

Sample 2
Target: CCNF, cyclin fold, Cln2 fusion (human)
Technique: yeast growth competition, sequencing
Medium: yeast
Notes: strong parent motif
Reference: not given
Direction: higher = stronger binding
Starting sequence: WEE1 docking peptide (human); HKTFRKLRLFDTP; partner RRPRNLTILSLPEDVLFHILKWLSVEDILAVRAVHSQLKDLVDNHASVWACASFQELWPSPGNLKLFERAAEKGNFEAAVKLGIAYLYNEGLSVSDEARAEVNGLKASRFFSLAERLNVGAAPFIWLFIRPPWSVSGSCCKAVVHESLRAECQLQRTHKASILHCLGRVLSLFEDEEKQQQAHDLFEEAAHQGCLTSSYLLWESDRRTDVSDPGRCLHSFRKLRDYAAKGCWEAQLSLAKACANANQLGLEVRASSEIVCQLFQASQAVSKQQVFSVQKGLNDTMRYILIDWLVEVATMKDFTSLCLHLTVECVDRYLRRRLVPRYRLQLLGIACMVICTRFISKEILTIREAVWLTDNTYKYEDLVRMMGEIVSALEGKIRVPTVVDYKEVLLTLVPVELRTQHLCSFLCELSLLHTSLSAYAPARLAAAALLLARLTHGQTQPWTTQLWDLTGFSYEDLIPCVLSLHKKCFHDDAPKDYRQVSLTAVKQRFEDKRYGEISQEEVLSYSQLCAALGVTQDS
Substitution | normalised enrichment score
T3G | 3.19
H1E | 1.8
F10P | 2.18
L7F | 2.18
L9V | 1.42
D11M | 2.33
K6L | 2.47
R5N | -4.78
R8K | 3.55
F10R | 1.5
R8H | 2.88
K6M | 1.5
F10L | 0.846
T12I | 2.66
P13N | 2.6

Sample 3
Target: Protein C-ets-1 (ETS1, Homo sapiens, UniProt P14921, residues 1-441, Y397A, full length assumed)
Chain of UniProt P14921 (whole entry, unmodified, looked up): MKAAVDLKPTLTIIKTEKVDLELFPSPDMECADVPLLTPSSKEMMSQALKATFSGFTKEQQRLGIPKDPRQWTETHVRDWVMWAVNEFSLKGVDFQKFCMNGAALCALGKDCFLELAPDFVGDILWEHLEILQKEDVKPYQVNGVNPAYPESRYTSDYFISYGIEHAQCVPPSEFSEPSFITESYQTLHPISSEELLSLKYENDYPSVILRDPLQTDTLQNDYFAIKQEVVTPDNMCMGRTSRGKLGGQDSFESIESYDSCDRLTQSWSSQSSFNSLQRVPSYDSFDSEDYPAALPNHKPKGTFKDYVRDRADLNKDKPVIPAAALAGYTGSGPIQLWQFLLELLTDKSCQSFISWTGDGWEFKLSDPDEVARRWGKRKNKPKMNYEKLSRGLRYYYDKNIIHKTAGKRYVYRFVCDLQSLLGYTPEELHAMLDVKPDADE
Technique: protein-binding microarray
Molecule type: double-stranded DNA, one strand shown
Medium: in vitro
Tested at: not given
Notes: k-mer, scored over probes, only values ≥0.25
Direction: higher = stronger binding
Strand | E-score
ACTGACAA | 0.357
AAACACAA | 0.297
ATGACAAT | 0.309
CATTGTCC | 0.281
TGCAGGAA | 0.26
CGGCAACA | 0.272
GACGTCGA | 0.255
CGTTGACA | 0.292
TTGCCAAA | 0.378
GTTGACAA | 0.429
CTTGACAA | 0.321
CGTGTCGC | 0.315
CGTTGATA | 0.27
TAATTGTA | 0.272
AATGACAA | 0.309

Other studies, line by line
Substance | target | test | test system | setting | scale | quantity | result
PhoQ, residues 284 288 289 292 302 303 SLANKL | PhoP, residues 12 14 15 18 19 TPWTL (Escherichia coli, UniProt P23836) | Sort-seq, refers to: YFP reporter | E. coli | PhoQ-PhoP variant library, together with: 10 µM Mg2+ | reference: high Mg2+ state, higher = stronger signaling | fold induction | 14

Excerpt of the above (sample 2):
Substitution | normalised enrichment score
R8H | 2.88
K6M | 1.5
F10L | 0.846
T12I | 2.66
